Measurements collected from several papers.
Numbered parts are unrelated; each lists some results of a single study. Positions count from the first letter of the parent shown.
Sequence of UniProt P09619 (whole entry, looked up): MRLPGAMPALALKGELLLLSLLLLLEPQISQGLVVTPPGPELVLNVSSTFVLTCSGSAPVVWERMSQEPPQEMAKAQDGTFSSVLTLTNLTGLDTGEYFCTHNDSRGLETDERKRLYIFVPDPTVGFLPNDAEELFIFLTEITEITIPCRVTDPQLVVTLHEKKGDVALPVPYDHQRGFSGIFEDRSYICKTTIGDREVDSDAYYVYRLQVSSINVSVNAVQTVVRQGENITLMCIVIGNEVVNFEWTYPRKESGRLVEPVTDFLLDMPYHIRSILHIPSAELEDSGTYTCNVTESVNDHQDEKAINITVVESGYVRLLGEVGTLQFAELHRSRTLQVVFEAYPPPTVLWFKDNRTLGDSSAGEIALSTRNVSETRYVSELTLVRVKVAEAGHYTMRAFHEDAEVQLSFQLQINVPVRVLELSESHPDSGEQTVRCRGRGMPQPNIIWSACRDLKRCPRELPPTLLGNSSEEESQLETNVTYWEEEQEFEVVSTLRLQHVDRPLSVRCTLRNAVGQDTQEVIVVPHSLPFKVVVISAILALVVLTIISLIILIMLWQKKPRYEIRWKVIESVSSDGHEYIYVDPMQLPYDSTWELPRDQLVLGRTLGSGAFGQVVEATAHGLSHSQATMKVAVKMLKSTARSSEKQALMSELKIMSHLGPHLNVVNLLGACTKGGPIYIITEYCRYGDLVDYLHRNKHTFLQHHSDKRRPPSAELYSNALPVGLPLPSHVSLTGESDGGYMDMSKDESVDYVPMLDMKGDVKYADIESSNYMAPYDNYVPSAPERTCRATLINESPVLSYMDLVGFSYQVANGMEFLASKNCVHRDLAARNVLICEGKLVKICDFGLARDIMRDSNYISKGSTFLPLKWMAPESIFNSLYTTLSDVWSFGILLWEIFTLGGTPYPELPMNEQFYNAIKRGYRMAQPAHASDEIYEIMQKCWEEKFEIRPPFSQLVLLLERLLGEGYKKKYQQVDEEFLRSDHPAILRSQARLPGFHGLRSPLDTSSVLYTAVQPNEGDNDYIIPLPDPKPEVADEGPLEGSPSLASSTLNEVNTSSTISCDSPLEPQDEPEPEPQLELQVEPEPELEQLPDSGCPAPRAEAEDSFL
Sequence of UniProt Q07912 (whole entry, looked up): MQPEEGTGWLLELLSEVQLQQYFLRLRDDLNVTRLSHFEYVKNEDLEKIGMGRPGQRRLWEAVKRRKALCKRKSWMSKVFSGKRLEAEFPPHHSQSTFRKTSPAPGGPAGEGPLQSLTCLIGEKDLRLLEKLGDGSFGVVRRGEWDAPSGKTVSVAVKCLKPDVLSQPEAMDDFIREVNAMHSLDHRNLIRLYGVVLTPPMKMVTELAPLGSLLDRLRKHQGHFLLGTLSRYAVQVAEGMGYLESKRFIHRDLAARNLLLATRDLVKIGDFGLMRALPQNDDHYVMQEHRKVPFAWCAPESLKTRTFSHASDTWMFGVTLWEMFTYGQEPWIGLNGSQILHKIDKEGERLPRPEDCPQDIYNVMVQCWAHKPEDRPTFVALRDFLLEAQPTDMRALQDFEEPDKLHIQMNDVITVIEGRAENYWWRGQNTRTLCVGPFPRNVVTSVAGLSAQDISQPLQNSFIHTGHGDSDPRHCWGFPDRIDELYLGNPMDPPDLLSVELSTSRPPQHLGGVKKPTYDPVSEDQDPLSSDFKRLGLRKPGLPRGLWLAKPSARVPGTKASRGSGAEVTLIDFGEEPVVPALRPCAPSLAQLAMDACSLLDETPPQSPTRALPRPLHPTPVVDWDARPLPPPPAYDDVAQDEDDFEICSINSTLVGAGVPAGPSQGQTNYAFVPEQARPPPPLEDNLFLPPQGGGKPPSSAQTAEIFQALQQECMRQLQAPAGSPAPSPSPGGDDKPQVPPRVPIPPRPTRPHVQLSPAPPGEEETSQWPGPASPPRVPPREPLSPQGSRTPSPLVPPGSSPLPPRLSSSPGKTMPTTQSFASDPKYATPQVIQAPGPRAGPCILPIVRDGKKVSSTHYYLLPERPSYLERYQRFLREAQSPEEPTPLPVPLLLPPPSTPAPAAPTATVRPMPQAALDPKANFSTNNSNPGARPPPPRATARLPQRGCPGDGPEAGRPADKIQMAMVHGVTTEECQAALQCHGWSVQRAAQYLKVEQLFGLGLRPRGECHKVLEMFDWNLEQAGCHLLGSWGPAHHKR

Series 1 — read-out: ligand displacement; tested at: 10 µM
Target: 5-hydroxytryptamine receptor 2C (HTR2C, Homo sapiens, UniProt P28335)
Sequence of UniProt P28335 (whole entry, looked up): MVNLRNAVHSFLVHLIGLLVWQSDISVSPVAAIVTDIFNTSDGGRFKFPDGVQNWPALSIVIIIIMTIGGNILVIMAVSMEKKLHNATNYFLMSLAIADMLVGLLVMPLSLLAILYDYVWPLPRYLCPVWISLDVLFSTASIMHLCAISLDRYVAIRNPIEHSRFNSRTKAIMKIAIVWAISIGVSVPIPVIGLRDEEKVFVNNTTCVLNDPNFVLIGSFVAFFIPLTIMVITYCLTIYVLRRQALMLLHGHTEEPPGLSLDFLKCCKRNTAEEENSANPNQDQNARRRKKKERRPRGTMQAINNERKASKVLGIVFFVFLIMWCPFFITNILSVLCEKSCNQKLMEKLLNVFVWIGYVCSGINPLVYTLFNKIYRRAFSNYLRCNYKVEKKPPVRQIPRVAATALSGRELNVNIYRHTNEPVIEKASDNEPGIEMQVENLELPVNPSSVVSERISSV
Structure (SMILES)	inhibition [%]
CNCc1ccccc1-c1csc([C@@H](C)Nc2nc(C)nc3cc(OC)c(OC)cc23)c1	73.7
CC(=O)c1c(NS(C)(=O)=O)c2cc(-c3ccc(Cl)cc3)c(-c3ccc(Cl)cc3Cl)nc2n(C)c1=O	81.8
CC(=O)Nc1ncc(CN2CCC[C@H](Cc3cc(C)nc(C)c3)C2)s1	15.2

Series 2 — read-out: binding; method: phage display NGS; molecule type: peptide; baseline: input library
Target: UDP-N-acetylglucosamine--peptide N-acetylglucosaminyltransferase 110 kDa subunit (OGT, Homo sapiens, UniProt O15294)
Construct (O15294 1-1046): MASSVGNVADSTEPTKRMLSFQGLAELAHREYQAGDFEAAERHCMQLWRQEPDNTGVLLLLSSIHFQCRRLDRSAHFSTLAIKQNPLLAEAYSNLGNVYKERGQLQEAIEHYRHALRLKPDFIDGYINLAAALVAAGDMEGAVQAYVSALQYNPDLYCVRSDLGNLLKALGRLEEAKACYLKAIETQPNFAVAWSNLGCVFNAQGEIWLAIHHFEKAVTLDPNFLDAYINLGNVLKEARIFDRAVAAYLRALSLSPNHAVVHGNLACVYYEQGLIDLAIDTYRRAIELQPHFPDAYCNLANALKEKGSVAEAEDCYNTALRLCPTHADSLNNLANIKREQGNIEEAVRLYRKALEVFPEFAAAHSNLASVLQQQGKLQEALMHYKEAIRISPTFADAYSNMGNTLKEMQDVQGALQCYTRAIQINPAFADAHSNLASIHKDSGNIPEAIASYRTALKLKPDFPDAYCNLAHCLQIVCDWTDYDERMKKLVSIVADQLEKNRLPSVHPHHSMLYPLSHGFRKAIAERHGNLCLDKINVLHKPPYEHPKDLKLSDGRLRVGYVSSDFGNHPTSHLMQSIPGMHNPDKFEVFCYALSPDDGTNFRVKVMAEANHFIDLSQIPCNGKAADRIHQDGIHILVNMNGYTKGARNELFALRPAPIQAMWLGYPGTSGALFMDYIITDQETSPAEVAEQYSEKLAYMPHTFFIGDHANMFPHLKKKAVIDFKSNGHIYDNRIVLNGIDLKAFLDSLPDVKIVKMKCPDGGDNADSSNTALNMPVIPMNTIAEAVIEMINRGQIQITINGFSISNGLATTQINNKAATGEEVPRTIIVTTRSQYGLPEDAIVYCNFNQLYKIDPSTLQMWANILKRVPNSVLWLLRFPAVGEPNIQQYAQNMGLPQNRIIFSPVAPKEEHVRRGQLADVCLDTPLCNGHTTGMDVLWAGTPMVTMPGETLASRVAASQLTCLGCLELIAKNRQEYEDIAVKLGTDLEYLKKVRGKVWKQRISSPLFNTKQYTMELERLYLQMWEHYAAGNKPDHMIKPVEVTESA
Molecule	minimum log2 enrichment ratio
HWNEGTHSTWFPHMH	2.2
HQMHAHQLHRPSTKF	3.79
LIARPYQPLYQIIPF	2.41
HPSHHHGHQNEYYV	3.19
QQQYRDYNPKYIIHY	3.19
HERHHYVRYQNAGQD	1.29
HFISPHPHRVENRMH	1.7
HTVDFRWEHRWHPHS	1.75

Series 3 — target: vanadate, free oxyanion; method: microfluidic competitive inhibition; medium: in vitro, cell-free expressed; tested at: not given; reading: lower = stronger binding
Notes: derived from inhibition constants, unchanged parent 676 nM
Starting sequence: PafA, mature enzyme, eGFP fusion (Elizabethkingia meningoseptica, UniProt Q9KJX5); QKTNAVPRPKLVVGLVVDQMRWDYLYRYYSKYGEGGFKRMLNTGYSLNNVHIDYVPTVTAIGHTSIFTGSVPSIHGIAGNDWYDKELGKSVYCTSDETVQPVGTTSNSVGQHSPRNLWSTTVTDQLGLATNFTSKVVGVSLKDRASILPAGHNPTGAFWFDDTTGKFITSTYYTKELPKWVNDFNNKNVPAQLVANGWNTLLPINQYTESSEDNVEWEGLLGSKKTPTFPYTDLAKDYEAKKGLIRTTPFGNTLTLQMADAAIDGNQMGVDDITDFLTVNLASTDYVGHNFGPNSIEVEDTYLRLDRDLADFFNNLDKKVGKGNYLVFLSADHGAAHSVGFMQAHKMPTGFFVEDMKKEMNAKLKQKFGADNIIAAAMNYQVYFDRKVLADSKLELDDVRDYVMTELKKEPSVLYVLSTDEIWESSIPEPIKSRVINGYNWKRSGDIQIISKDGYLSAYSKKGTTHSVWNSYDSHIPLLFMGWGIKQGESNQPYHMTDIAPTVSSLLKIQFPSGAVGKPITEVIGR
Change	oxyanion analog dissociation constant
I147V	837 nM
I427V	779 nM
L126V	473 nM
N199V	714 nM
V181A	620 nM
Q19G	54.1 µM
V503A	576 nM
R400V	719 nM

Mixed results — read-out: enzyme activity; action: inhibitor; tested at: 0.5 µM; baseline: control
Structure (SMILES)	target	remaining activity [%]
N/C(=N\[N+](=O)[O-])N/N=C\c1ccc(-c2cccc([N+](=O)[O-])c2)o1	PDGFRB (Homo sapiens, UniProt P09619)	129
COc1ccc2c(c[n+](C)c3c4cc5c(cc4ccc23)OCO5)c1OC	TNK2 (Homo sapiens, UniProt Q07912)	101

Excerpt of the above (series 3):
Change	oxyanion analog dissociation constant
I427V	779 nM
N199V	714 nM
V503A	576 nM
